# Measured values collected from several papers.
# Numbered parts are unrelated; each lists some results of a single study.

# Block 1
# Target: Centromere-binding protein 1, full length, N-terminal tag (CBF1, Saccharomyces cerevisiae, UniProt P17106, residues 1-351)
# UniProt P17106, sequence (whole entry, looked up): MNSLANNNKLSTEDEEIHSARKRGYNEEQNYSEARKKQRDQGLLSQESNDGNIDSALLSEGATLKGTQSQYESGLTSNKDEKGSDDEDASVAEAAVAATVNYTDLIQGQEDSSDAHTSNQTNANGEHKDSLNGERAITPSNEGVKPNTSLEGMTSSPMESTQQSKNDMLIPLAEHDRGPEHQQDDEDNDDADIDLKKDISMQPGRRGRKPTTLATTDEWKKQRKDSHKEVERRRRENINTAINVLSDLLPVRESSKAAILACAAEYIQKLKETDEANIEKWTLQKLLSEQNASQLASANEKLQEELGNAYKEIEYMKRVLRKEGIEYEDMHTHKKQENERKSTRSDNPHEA
# Technique: protein-binding microarray
# Form: double-stranded DNA, one strand shown
# Matrix: in vitro
# Concentration: 0.8 µM
# Setting: whole 60-bp probe, no competitor
# Reading: higher = stronger binding
Strand,fluorescence intensity [a.u.]
CTACAGCCGTACATACACGTGCCATTTATCTTGTTCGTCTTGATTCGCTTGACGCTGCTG,7400
TGTACGAAGCTATGTGACAATGATATAGTAGTTAGGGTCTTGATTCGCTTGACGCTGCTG,571
GAATTCTCTCCGAGACACGTGCTAATATCTATTTAGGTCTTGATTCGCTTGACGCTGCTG,11100
CTATTTTTGCCCTTTCGGGTGATCAAAGTCGTGTTCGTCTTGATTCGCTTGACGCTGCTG,588
GAAAAGTTCGTGCGTCACCTGCACCAGCATATTTAGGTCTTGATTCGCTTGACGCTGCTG,950
CTATTTTGCGTCGCGCACGTTTCTCACGTACATTTCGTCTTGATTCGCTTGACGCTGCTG,652
TGTACGAAGCTATACATCGTGGTTATAGTAGTTAGGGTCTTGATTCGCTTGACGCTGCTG,510
CTAGACAATGGAACAAATGTGTCACCAAGGTTGTTCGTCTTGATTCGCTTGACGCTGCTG,500
GAATCGTTCAAAGAAAACATCAGAAGTGGTTGATAGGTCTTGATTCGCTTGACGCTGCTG,549
CTATGTCTTTTCTACCACATGCACAATGAAAGCTTCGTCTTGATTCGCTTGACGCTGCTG,872
CTAATAGTTAATGATCACGACGGCAATGACAAATTCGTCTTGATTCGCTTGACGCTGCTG,920
TGTACGAAGCTATATCCACGCACTATAGTAGTTAGGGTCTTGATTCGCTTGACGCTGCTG,520
GAAAGGTAACCGCATCACGACTTATCGCATTTCTAGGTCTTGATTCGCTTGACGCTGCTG,560
GAACAATTTTATGACCGCGTGTTTTCGAATTTTTAGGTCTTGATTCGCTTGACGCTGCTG,676
GAAATGTCATTTTAACACGTGTGTTGGATGGGATAGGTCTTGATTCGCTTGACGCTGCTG,4390
GAAACACGCTTTGGGGACATCATGTATAACAGCTAGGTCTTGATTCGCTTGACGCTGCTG,510
GAATATTTACGCCATCACGCTCACCTTCTTCCCTAGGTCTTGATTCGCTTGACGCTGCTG,626
CCTAACTACTATAAAGACGTGATATAGCTTCGTACAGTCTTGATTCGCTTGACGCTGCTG,608
GAAAAATAGTTGAAAGGTGTGACATAAGAAGGTTAGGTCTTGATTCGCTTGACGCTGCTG,568
CCTAACTACTATAATTTCACCTGATAGCTTCGTACAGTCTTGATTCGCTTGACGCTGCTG,602
GAATGCTGTATTATTATCGTGATTTCTCGATTATAGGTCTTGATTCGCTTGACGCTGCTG,525
CTATACAAGAAAACTATCGTGGGTGAAGCTGCATTCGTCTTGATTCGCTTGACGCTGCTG,524
CTATGCTGTATCGCCCACGTTCTTGTTGTAGATTTCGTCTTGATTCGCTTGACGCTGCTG,566
TGTACGAAGCTATCCAACATGATTATAGTAGTTAGGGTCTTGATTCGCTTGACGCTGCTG,524
CTAAACATTTGTCGGATATGACCTCACCTAAGCTTCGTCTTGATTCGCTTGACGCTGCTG,518

# Block 2
# Target: RING finger protein unkempt homolog, zinc fingers 1-6, GST-SBP tag (UNK, Homo sapiens, UniProt Q9C0B0, residues 30-357)
# Technique: RNA Bind-n-Seq
# Form: RNA
# Matrix: in vitro
# Concentration: not given
# Setting: RNA with constant flanks, human and mouse sites, ends assumed
# Reference: input RNA pool
# Reading: higher = stronger binding
# Construct (chain): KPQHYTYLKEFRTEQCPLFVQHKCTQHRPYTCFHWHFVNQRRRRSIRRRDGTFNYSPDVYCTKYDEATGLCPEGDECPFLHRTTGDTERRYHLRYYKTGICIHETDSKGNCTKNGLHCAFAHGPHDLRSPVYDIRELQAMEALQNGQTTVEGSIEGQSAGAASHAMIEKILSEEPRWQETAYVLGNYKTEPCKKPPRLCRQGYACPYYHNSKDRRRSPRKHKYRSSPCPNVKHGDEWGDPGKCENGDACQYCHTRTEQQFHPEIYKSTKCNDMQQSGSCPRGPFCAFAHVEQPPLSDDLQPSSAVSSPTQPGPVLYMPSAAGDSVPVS
Strand,bound/input enrichment
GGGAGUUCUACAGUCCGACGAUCGAUGAACUUCAUGAUCAUGGAGUUUCAAGCCUGAGUGUGAAGAUUAGAGUAAUGCCUUCUAGCUUUUUCCUGCUGUUGCGGUUUUUCUUGAGAAUUGAUGGGGUGCUUAUCAGAAUGAAUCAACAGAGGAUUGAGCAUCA,1.11 ratio
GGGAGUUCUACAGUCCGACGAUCCUGGGGAGUGUCCAGGGUUGGACAAAGCUCCACAGUGACUCUUUACGUAUGGAUGGGGACAUAGAUAAGUUUAUAUCUAGGUGAAUACUAACUUGUUCCUUACUAUGAAUUCUAAAGUACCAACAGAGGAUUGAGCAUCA,0.0901 ratio
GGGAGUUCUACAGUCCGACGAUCUCUACUUCCUCCUCCUCCUCUGAAGACGACUGUUUUGAGAGGAGAACAAAAAGGAACCGAAAUAGAGCUAUUAACAGGUGCCUCCCACUAAAUUUUCGGAAAGAUGAAAUAAGAGGGAUUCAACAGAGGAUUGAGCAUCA,0.19 ratio
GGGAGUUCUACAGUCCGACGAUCUUUUCAAAAUGUAAAAAAGCCUUUCGUGAAGGAUCUAGGAAAUCAUCAAGGGUUAAGGGUUCAGCACCAGAAAUUGAUCCUUCAUCUGAUAGUUCAAAUUUUGUUUGGGAAACAAAAAUCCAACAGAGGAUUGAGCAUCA,0.448 ratio
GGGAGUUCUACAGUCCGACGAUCGCCAUCUAUGAUAUCUGUCGUAGAAACCUCGACAUUGAGCGCCCAACCUACACUAACCUAAACAGGUUGAUAGGUCAAAUUGUGUCUUCCAUCACUGCUUCCCUCAGAUUUGAUGGGGCCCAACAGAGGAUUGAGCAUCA,0.135 ratio
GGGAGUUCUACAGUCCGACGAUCGGCCUGACAAAUUAUGCUGCAGCCUAUUGCACUGGCCUGCUGCUGGCCCGCAGGCUUCUGAAUAGGUUUGGCAUGGACAAGAUCUAUGAAGGCCAAGUGGAGGUGAAUGGAGGUGAAUACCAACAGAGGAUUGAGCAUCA,0.146 ratio
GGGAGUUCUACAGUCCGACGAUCAUUCAUUUUCUUAUCUCUCCAUUAAAGCACUAAUAUUUUAUACAGUUUCAGCAAGCAGGUUGACCAGUAUAUUUUAUGAACUCAGUUCCUAAUAUAUGGCUACUGGCUUUAUGCAUAGGACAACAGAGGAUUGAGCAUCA,0.527 ratio
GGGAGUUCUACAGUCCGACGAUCCACUGGAGACUGAGCAAAAGGAAAUGUGAAACGAACAACAUGAUGGAAUAUGUCAUCCUCAUAGAAUUUUUACCAAAGACACCGAUUUUUCGACCAGAUUAGCAUUUGCUUUAUUUAUAGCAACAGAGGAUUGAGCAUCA,22.3 ratio
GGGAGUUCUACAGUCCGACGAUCAACGUAUUUGUAAAAUUAACACUAAAGAUGCAUGUGAGUCAUUUCACCAAAAGGAACUCUAUUAAUAAGCUAGACUGCUUUUGGUUUCCAGUAAUUGGUUUAAAAACACAGUAAAUUUACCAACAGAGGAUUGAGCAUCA,0.287 ratio
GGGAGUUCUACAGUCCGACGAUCGUAGAUUGCAUUUCGGCUUUUCCUCCUUUCACAUUCUUUUUUGCUUUACACUUCACGUCUUCGCACCUGCCCUACCUCCCAUCCUUUCAAAGAGGUUUCUUUCACGUUCCAGAAUUCAGACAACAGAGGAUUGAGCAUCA,0.415 ratio
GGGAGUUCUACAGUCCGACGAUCCAUGCUUUGAAGCUGGACUCUUUUGGCCAGUUUAUUGAAUUAUUACCCAGCCUAGAGUUUAUUUCACUGGAUCAGAUGUUUCGUGAACCACCCAAGGGUUGUGCUCGAGUUGGUCUGAGUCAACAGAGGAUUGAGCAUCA,0.433 ratio

# Block 3
# Target: RNA binding protein fox-1 homolog 2, RRM domain, GST-SBP tag (RBFOX2, Homo sapiens, UniProt O43251-10, residues 100-194)
# Technique: RNA Bind-n-Seq
# Form: RNA
# Matrix: in vitro
# Concentration: 365 nM
# Setting: natural RNA segment, single round, ends assumed
# Reference: no-protein control
# Reading: higher = stronger binding
# Construct (chain): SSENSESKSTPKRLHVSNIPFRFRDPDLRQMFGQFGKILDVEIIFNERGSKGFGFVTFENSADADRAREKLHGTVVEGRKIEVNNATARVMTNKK
Strand,RBNS enrichment (R)
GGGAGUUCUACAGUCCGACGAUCCCGUUCUGUCCCCCAUUCAAGGAAUGACAUUCUCAGUCACCCAGAGCCAUCUGGCCUACCCUCUCAGGAAAUGGGUUGUCCUGUAGAGUUCUCUACCCUUUUAAAGGCAAUGGAAUUCUCGGGUGCCAA,0.487
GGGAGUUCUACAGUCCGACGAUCCCUUGCUGCACCAGUGGCCAUUAGCUCCCGUCACCACUGCAACCCAGGGUCCCAGCUGGCUGGGUCCUCUUCUGCCCCCAGUGCCCUUCCCCUUGGGCUGUGUUGGAGUGUGGAAUUCUCGGGUGCCAA,1.04
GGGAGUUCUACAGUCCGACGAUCAAUUUUUUGCUUCUGGGGACUUGAGUAUUUUUAAAUGUUCUUAAAAUUAUAUGAAUCUACCCAGAAUGUAGAUGUCAAAAUGUAAUUAGAGGCCCCGUGCAGUGGCUCACUGGAAUUCUCGGGUGCCAA,0.505
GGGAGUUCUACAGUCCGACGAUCUUACUAAAACUGUGGCUUAGUAGUAAGCUGAGGGCUAAAUGAGAGACUGCUAUUCUAAGAGCAUCAGGGCUCUGAGGGCCAAAGAAGCAAUGGGAGUCCUGAGCUAGUAUUGGAAUUCUCGGGUGCCAA,0.547
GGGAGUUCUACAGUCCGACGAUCGACCUGGAGAUCAUGGUGACUGUAAGCUAAGUCUGUUUUCAUGCCAGAUUUCAGCCCCACCCAGAGUGUGCUCUAGAUGUUGUUGAUUUGAAUGGUUUUCCCAGUUCCCAUGGAAUUCUCGGGUGCCAA,0.558
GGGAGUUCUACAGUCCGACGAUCUCAUUAUUCACUUAUUAGCAAGAAGGUAGCAUUAUCAUAAAGGAUUAGAUGACUUAAGUUAGCUAUAGGUUCAAGACCUGGACUAAAGUAUUACUUGGAAAUUCUGAGUAUGGAAUUCUCGGGUGCCAA,0.36
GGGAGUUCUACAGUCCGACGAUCCUUGAGUUCUUAAGUACAGAAGAUAGAAGUGAUUUAAAUGGCAUAGUAUAUAUAUCAUUUUCUGGCCUUUUAAAAUUUAUUUGAGACCUCUUGAUGAAAUGGACAUAUUAUGGAAUUCUCGGGUGCCAA,0.261
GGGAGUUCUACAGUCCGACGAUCCUGCCUGCUUUCUCAGAGUCUGGGCAGGCCGAUGGGAACUGUCAUCUCCUUAGGGAUGUGUGUGUUCAGUGCAAAGUAAGAAAUAUGAAAAUAUCCCUGUUCUUAGUUACUGGAAUUCUCGGGUGCCAA,0.362
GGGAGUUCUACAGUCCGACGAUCUUUUCUCCAUAAAGUUUGACAUCUGACCCCAGAUUCUAUGUAAUCAUUAUUAGAAAUUCCUUCUCUCAUUAUUUCAGGAUUAGUAGUUCUGUGUAAUUCAUUUUACAAUUUGGAAUUCUCGGGUGCCAA,0.507

# Block 4
# Target: PABPC1L2, full length, GST fusion (mouse, UniProt A0ABA7IW68)
# Technique: RNAcompete
# Form: RNA
# Matrix: in vitro
# Concentration: 20 nM
# Setting: 7-mer, probes averaged, single round
# Reference: mean of 7-mers
# Reading: higher = stronger binding
# Target sequence (chain): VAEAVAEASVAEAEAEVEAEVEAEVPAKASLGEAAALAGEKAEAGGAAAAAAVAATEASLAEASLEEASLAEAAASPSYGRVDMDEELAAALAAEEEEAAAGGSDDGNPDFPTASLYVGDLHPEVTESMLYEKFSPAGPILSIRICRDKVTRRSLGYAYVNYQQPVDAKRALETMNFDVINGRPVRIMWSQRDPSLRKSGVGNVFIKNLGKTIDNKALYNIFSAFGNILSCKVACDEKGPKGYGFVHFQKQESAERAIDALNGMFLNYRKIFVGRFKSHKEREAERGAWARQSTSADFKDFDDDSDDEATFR
Strand,7-mer Z-score
UACUCCU,-0.286
AGAAUAC,-0.113
UUUGCAA,-0.0681
UUAUAUA,-0.188
GAGGCUU,-0.126
CAGUGGA,0.162
GAAACUA,0.514
GAACCGC,-0.146
AAGUAGC,0.157
AGGUUGC,-0.0681
UGAGGGA,0.338
GAGGUUG,-0.00289
CGUGAUG,-0.211
UUGGGCU,-0.012
AAUUUGA,0.209
GCAAAGG,0.198
UGCAUUU,-0.186
UUACCUC,-0.298
AGGCGCG,-0.121

# Repeated from above (block 4):
Strand,7-mer Z-score
GAAACUA,0.514
GAACCGC,-0.146
AAGUAGC,0.157
AGGUUGC,-0.0681
UGAGGGA,0.338
GAGGUUG,-0.00289
CGUGAUG,-0.211
